Measurements gathered from unrelated publications.
Numbered parts are unrelated; each lists some results of a single study. Positions count from the first letter of the parent shown.

Series 1
Target: CCNE1, cyclin fold, Cln2 fusion (human)
Technique: yeast growth competition, sequencing
Medium: yeast
Setting: strong parent motif
Reference: not given
Reading: higher = stronger binding
Starting sequence: RBL2 docking peptide (human); STTRRRLFVENDS; partner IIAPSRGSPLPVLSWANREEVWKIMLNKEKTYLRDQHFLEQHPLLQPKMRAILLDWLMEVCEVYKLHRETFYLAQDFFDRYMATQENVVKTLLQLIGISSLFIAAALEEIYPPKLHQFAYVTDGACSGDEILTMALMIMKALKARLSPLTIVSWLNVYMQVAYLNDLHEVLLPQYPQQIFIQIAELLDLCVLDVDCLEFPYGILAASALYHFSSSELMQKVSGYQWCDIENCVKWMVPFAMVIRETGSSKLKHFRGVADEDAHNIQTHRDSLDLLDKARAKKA
`F8I` — result for “normalised enrichment score”: 0.205.
For `V9N`, “normalised enrichment score” read 5.61.
`T3E`: “normalised enrichment score” 2.22.
For `N11D`, “normalised enrichment score” read 6.64.
`R4N` — result for “normalised enrichment score”: 2.03.
For `T3D`, “normalised enrichment score” read 0.521.
`S13E`: “normalised enrichment score” 6.75.
`S1A`: “normalised enrichment score” 5.37.
For `V9L`, “normalised enrichment score” read 5.09.
`S1L`: “normalised enrichment score” 5.66.
For `S1Y`, “normalised enrichment score” read 5.44.
`E10Y` — result for “normalised enrichment score”: 2.35.
Under “normalised enrichment score”, `R4K` is recorded as 5.64.
`R6N` — result for “normalised enrichment score”: 0.587.
`V9K`: “normalised enrichment score” 3.86.
`R5E` — result for “normalised enrichment score”: -0.0208.
For `S13C`, “normalised enrichment score” read 5.49.
`L7M`: “normalised enrichment score” 0.0405.
`D12E`: “normalised enrichment score” 5.28.
`S13W` — result for “normalised enrichment score”: 5.54.
`N11P` — result for “normalised enrichment score”: 5.68.
For `N11L`, “normalised enrichment score” read 4.84.
For `N11M`, “normalised enrichment score” read 5.23.
Under “normalised enrichment score”, `R6W` is recorded as 1.25.
`D12M` — result for “normalised enrichment score”: 3.85.

Series 2
Target: CREBRF, bZIP domain (human)
Technique: DHFR protein complementation
Medium: yeast
Setting: single substitutions, most at no-binding floor
Reference: wild-type JUN-FOS pair
Reading: higher = stronger binding
Starting sequence: JUN, bZIP domain (human); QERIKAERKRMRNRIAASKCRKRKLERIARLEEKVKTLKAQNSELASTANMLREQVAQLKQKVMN; partner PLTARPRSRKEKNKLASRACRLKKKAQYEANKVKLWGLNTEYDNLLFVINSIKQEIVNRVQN
The binding fitness of `V56H` is reported as -1.6 natural log.
For `L52E`, the binding fitness was -1.41 natural log.
For `L31S`, the binding fitness was -1.38 natural log.
With `V56W` the binding fitness was -1.49 natural log.
For `M51E`, the binding fitness was -1.52 natural log.
With `N42K` the binding fitness was -1.38 natural log.
`I28P` has a binding fitness of -1.51 natural log.
`T48W` gave a binding fitness of -1.19 natural log.
`L59A` gave a binding fitness of -1.46 natural log.
The binding fitness of `I28E` is reported as -1.49 natural log.
`K39W` gave a binding fitness of -1.57 natural log.
With `L45W` the binding fitness was -1.56 natural log.
The binding fitness of `K39P` is reported as -1.51 natural log.
The binding fitness of `T37L` is reported as -1.3 natural log.
The binding fitness of `L52N` is reported as -1.39 natural log.
`Q58P` gave a binding fitness of -1.59 natural log.
With `L52I` the binding fitness was -1.5 natural log.
With `L45F` the binding fitness was -1.54 natural log.

Series 3
Target: ABI1, truncated, D143A, DHFR fusion (Arabidopsis thaliana)
Technique: DHFR PCA, deep sequencing
Medium: yeast
Setting: methotrexate growth selection, single substitutions
Added: (+)-ABA 0 µM
Reference: wild-type fitted maximum
Reading: higher = stronger binding
Starting sequence: PYL1, truncated, DHFR fusion (Arabidopsis thaliana); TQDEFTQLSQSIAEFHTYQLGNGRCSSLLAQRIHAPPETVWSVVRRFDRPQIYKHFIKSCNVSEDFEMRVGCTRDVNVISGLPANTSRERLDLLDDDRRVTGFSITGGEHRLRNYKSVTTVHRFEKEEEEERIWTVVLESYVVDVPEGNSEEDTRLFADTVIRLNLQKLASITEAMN; partner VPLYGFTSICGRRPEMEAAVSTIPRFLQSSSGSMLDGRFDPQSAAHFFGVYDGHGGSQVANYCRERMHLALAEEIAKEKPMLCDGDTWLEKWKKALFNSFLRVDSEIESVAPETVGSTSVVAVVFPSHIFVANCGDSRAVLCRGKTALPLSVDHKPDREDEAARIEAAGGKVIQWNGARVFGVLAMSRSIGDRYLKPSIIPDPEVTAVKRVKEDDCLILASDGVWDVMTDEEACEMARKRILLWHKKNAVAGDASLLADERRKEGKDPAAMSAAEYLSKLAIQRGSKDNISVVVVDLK
Under “relative binding score”, `H34N` is recorded as 45.9%.
`S63V` — result for “relative binding score”: 6.73%.
Under “relative binding score”, `P37T` is recorded as 7.15%.
For `I57M`, “relative binding score” read 1.8%.
Under “relative binding score”, `G71T` is recorded as -2.74%.
Under “relative binding score”, `E129V` is recorded as 18.3%.
`F66Y` — result for “relative binding score”: -1.07%.
Under “relative binding score”, `P146K` is recorded as -5.95%.
`R45W` — result for “relative binding score”: -3.13%.
`R49K` — result for “relative binding score”: 47.5%.
`Q19P`: “relative binding score” 45.7%.
`H34K` — result for “relative binding score”: 32.7%.
Under “relative binding score”, `S63C` is recorded as 19.6%.
For `S171I`, “relative binding score” read -0.747%.
For `E131W`, “relative binding score” read 22.2%.
For `H16F`, “relative binding score” read -5.72%.
For `D48Q`, “relative binding score” read -8.54%.
Under “relative binding score”, `H55P` is recorded as 58%.
`K54Q`: “relative binding score” 6.13%.
`K168D` — result for “relative binding score”: 1.48%.
`I172H`: “relative binding score” -1.68%.

Series 4
Target: Ras GTPase-activating protein-binding protein 1, C-terminal RGG region (G3BP1, Homo sapiens, UniProt Q13283)
Chain of UniProt Q13283 (whole entry, looked up): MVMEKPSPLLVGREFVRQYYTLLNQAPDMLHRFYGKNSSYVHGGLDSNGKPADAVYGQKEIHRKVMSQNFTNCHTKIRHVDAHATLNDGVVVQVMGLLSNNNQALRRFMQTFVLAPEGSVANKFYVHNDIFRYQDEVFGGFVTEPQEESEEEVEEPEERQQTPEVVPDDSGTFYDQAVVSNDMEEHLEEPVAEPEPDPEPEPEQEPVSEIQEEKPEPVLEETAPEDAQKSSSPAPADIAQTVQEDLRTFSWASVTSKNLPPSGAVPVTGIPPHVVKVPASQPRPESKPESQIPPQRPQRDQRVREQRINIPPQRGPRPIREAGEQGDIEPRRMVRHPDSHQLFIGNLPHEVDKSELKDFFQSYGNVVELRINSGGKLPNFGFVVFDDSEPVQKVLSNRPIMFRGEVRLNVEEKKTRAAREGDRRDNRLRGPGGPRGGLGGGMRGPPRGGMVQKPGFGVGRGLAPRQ
Technique: RNA Bind-n-Seq
Molecule type: RNA
Medium: in vitro
Concentration: 1 µM
Setting: whole 134-nt RNA, ends assumed
Added: 150 mM KCl
Reference: input library
Reading: higher = stronger binding
The log2 enrichment of `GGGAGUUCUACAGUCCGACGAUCCCUGUGCUACACAUCGUAUGUACCGAAUCGGCCCCCCCGGCCCCCCCGGGGCCCCCCCGGAAAGUAUUAUGUUACGCCGUUCGGAUCUGCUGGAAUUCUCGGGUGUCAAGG` is reported as -1.14.
`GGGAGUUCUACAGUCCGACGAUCGGGGAGGUGGAUUUUGUUUAUUUUUUUAGCUCAUUUCCAGGGGUGGGAAUUUUUUUUUAAUAUGUGUCAUGAAUAAAGUUGUUUUUGAAAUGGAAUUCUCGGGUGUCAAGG` gave a log2 enrichment of 3.11.
`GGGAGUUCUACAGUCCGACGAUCGCAGGAAGUAAAAACAAAUGGAAAUGCUUCGGAUAGUGGCAGGGGUGGGGGUUGCUAAGGAAAGGGUGGGAUGGGAGUGGGUACAGAGUUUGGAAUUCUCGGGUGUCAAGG` gave a log2 enrichment of 0.511.
With `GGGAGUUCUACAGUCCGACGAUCCACAGACAACACGCACCCACACAGACACAGAGGGAAGGGGUUGGGAUGGGGACAGGGUGCACAAAAGGGCGGGGUAGGACCCCAGCCCCUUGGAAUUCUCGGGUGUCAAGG` the log2 enrichment was -0.245.
For `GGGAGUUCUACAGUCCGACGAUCUGUGGCCGCAGGACGAGUACAUCGUGGAGUACUCACUAGAGUAUGGCUUCCUUCGCCUGUCGCAGGCCACCCGCCAGCGCCUGAGCAUCCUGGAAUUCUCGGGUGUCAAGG`, the log2 enrichment was 0.344.
`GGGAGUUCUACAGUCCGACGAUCAAGUCCUGUGCUACACAUCGUAUGUACCGAAUCGGAGGUUUUUUUGGAAAAAAAGGAAAGUAUUAUGUUACGCCGUUCGGAUCUGCACUUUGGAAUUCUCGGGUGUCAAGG` gave a log2 enrichment of -2.17.
With `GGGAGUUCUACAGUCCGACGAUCUCCUGUGCUACACAUCGUAUGUACCGAAUCGGGGUGGGGUUUUUUUGGGGUUUUUGGGGAAAGUAUUAUGUUACGCCGUUCGGAUCUGCAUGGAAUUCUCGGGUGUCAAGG` the log2 enrichment was 1.21.
`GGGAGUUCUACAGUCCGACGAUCGUCCUGUGCUACACAUCGUAUGUACCGAAUCAAACCCCCCCAAACCCAAACCCCCAAAAAAGUAUUAUGUUACGCCGUUCGGAUCUGCACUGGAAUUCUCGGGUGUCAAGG` has a log2 enrichment of -0.809.
The log2 enrichment of `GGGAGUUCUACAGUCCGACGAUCAGUCCUGUGCUACACAUCGUAUGUACCGAAUCGGGGCCCCCGGCCCCCGGCCCCCGGAAAGUAUUAUGUUACGCCGUUCGGAUCUGCACUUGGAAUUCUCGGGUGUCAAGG` is reported as -1.49.
`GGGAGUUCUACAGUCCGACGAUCCCUGUGCUACACAUCGUAUGUACCGAAUCGGGGUGGGGAAAAAAAGGGGUUUUUUUGGGGAAAGUAUUAUGUUACGCCGUUCGGAUCUGCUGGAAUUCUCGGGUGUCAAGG` gave a log2 enrichment of 0.491.

Some of these lines once more (series 4):
`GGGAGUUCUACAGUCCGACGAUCGUCCUGUGCUACACAUCGUAUGUACCGAAUCAAACCCCCCCAAACCCAAACCCCCAAAAAAGUAUUAUGUUACGCCGUUCGGAUCUGCACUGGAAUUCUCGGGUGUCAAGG` has a log2 enrichment of -0.809.
`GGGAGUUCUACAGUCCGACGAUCAAGUCCUGUGCUACACAUCGUAUGUACCGAAUCGGAGGUUUUUUUGGAAAAAAAGGAAAGUAUUAUGUUACGCCGUUCGGAUCUGCACUUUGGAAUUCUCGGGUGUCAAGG` gave a log2 enrichment of -2.17.
`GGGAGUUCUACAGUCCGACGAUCGGGGAGGUGGAUUUUGUUUAUUUUUUUAGCUCAUUUCCAGGGGUGGGAAUUUUUUUUUAAUAUGUGUCAUGAAUAAAGUUGUUUUUGAAAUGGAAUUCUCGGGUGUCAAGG` gave a log2 enrichment of 3.11.
`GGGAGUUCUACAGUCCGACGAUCCCUGUGCUACACAUCGUAUGUACCGAAUCGGGGUGGGGAAAAAAAGGGGUUUUUUUGGGGAAAGUAUUAUGUUACGCCGUUCGGAUCUGCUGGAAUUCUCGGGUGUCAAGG` gave a log2 enrichment of 0.491.
With `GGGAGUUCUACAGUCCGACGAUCCACAGACAACACGCACCCACACAGACACAGAGGGAAGGGGUUGGGAUGGGGACAGGGUGCACAAAAGGGCGGGGUAGGACCCCAGCCCCUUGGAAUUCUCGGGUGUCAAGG` the log2 enrichment was -0.245.
